Assay results pooled from the literature.
Protocols differ between the studies behind these lines. Numbers after ± are the reported error. Bridges are numbered along the chain shown (N, C = ends). Where no end group is shown, it is not given here. Ends that are not written are not given here.

Substance = CC(=O)Nc1cccc(OCc2nnc(SCc3ccc(Cl)cc3)o2)c1; assay = forced swimming test; system = mice; setting = 40 mg/kg, 0.5 h; how to read = baseline: control; measurement = immobility duration decrease; value = 58.9%
Substance = CCOc1ccc(-c2nc(-c3cccc4c3CCC4NCCO)no2)cc1OCC (stereo not drawn); assay = blood CD8+ cell count reduction, flow cytometry; system = mouse; setting = intraperitoneal, 5 h; measurement = ED50; value = 2 mg/kg
Substance = CC(C)(Sc1ccncc1-c1ccc(C#N)c2ccccc12)C(=O)O; system = male gout patients, urine; setting = 300 mg, 0 to 24 h, with: verinurad 10 mg alone or combined; how to read = baseline: baseline; measurement = urinary uric acid excretion; value = 9.88%
Substance = CCCCCCCCCCCCCCCC(=O)NCCCC[C@H](NC(=O)[C@H](CCC(=O)O)NC(=O)[C@H](CCC(=O)O)NC(=O)[C@H](Cc1ccc(O)cc1)NC(=O)[C@H](CCC(=O)O)NC(=O)CCCCCNC(=S)Nc1ccc2c(c1)C(=O)OC21c2ccc(O)cc2Oc2cc(O)ccc21)C(=O)N[C@@H](Cc1ccc(O)cc1)C(=O)N[C@@H](CCC(=O)O)C(=O)NCC(=O)NCC(=O)NCC(=O)NCC(=O)N[C@@H](CO)C(=O)NCC(=O)NCC(=O)NCC(=O)NCC(=O)N[C@@H](CO)C(=O)N[C@@H](Cc1ccccc1)C(=O)N[C@@H](CC(N)=O)C(=O)N1CCC[C@H]1C(=O)N[C@@H](CCCNC(=N)N)C(=O)N[C@@H](Cc1c[nH]cn1)C(=O)NC(C)(C)C(=O)N[C@@H](CCC(=O)O)C(=O)NCC(=O)N[C@H](C(=O)N[C@@H](Cc1ccccc1)C(=O)N[C@H](C(=O)N[C@@H](CO)C(=O)N[C@@H](CC(=O)O)C(=O)N[C@H](C(=O)N[C@@H](CO)C(=O)N[C@@H](CO)C(=O)N[C@@H](Cc1ccc(O)cc1)C(=O)N[C@@H](CC(C)C)C(=O)N[C@@H](CCC(=O)O)C(=O)NCC(=O)N[C@@H](CCC(N)=O)C(=O)N[C@@H](C)C(=O)N[C@@H](C)C(=O)N[C@@H](CCCCN)C(=O)N[C@@H](CCC(=O)O)C(=O)N[C@@H](Cc1ccccc1)C(=O)N[C@H](C(=O)N[C@@H](C)C(=O)N[C@@H](Cc1c[nH]c2ccccc12)C(=O)N[C@@H](CC(C)C)C(=O)N[C@H](C(=O)N[C@@H](CCCCN)C(=O)NCC(=O)N[C@@H](CCCNC(=N)N)C(=O)NCC(=O)O)C(C)C)[C@@H](C)CC)C(C)C)[C@@H](C)O)[C@@H](C)O; system = db/db mouse; setting = subcutaneous, 150 nmol/kg, 0.5 h before glucose, AUC 0-120 min, with: oral glucose 2.0 g/kg; how to read = baseline: saline; measurement = glucose reduction; value = 62.7%
Substance = VCTGSC; assay = inhibitor, light transmission aggregometry; system = peptide, human platelet-rich plasma; setting = 500 µg/mL, with: ADP 4 µM; measurement = platelet aggregation; value = inactive
Substance = insulin detemir; system = female Sprague-Dawley rat, blood; setting = sc, 15 U/kg, 6 weeks; measurement = HbA1c; value = 4.45 ± 0.04%
Substance = KCNTATCATQRLANFLVHSSNNFGPILPPTNVGSNTY (Pramlintide; not fully specified (C-terminus, bridges); cysteine pairing not given here; sequence looked up); system = peptide, obese or overweight humans; setting = dose not given, 24 weeks; how to read = baseline: initial weight; measurement = body weight loss; value = ~8%
Substance = insulin aspart; system = obese type 2 diabetes patients; setting = subcutaneous, 0.2 U/kg, before standard meal; measurement = maximum glucose excursion; value = 40 mg/dL
Substance = AGEDPHGYFLPGQFA; system = peptide, C57BL/6J mouse, zymosan peritonitis; setting = ip, 0.32 ng/kg, 4 h after zymosan, dosed 1 h before zymosan; measurement = peritoneal monocytes; value = 300000 cells
Substance = CCC1=C[C@@H]2CN(C1)Cc1c([nH]c3ccccc13)[C@@](C(=O)OC)(c1cc3c(cc1OC)N(C)[C@H]1[C@@](O)(C(=O)OC)[C@H](OC(C)=O)[C@]4(CC)C=CCN5CC[C@]31[C@@H]54)C2; assay = overall survival; system = mice, HT-29 xenograft; how to read = baseline: vehicle; measurement = minimum effective dose; value = 45 mg/m²
Substance = Cn1cnc2ncn(Cc3nc(CCc4ccc(Cl)cc4)no3)c(=O)c21; system = mouse, CFA inflammation, saphenous skin-nerve preparation; setting = 11 µM, 48 h, with: forces above 100 mN; how to read = baseline: DMSO vehicle; measurement = reduction of C-fibre firing; value = 59%
Substance = Cc1cc(C)c(/C=C2\C(=O)Nc3ccccc32)[nH]1; assay = MRI, enhancing lesion; system = human; setting = concentration not given, 2.6 months; measurement = tumour area; value = 4.6 cm²
Substance = OC(CCN1CCCCC1)(c1ccccc1)C1CC2C=CC1C2 (stereo not drawn); assay = 0-back reaction time; system = healthy elderly human, plasma; measurement = EC50; value = 0.00672 µg/mL
Substance = COc1ccc(-n2nc(C(N)=O)c3c2C(=O)N(c2ccc(N4CCCCC4=O)cc2)CC3)cc1; assay = functional antithrombin; system = human, plasma; setting = dose not given, drug plasma level above 100 ng/mL; how to read = baseline: pretreatment samples; measurement = antithrombin activity increase; value = 18%
Substance = CCOC(=O)[C@H](C)C[C@@H](Cc1ccc(-c2ccccc2)cc1)NC(=O)CCC(=O)O; system = female C57BL/6JRj mice; setting = oral, 0.7 nmol/g, 10 min, with: amino acids 34 mg oral; how to read = baseline: vehicle; measurement = increase in glucagon response; value = 41%
Substance = CC1(C)CCC(c2ccc(Cl)cc2)=C(CN2CCN(c3ccc(C(=O)NS(=O)(=O)c4ccc(N[C@H](CCN5CCOCC5)CSc5ccccc5)c(S(=O)(=O)C(F)(F)F)c4)cc3)CC2)C1; assay = cell kill, PI exclusion flow cytometry; system = CD21+ nodal neoplastic cells, human; measurement = EC50; value = > 5 µM
Substance = CCCCCCCSc1nnc(COc2ccc3c(c2)NC(=O)CC3)o1; assay = forced swimming test; system = mice; setting = 40 mg/kg, 0.5 h; how to read = baseline: control; measurement = immobility duration decrease; value = 19.3%
Substance = CC(C)NCCCC[C@H](NC(=O)[C@H]1CCC(=O)N[C@@H](Cc2ccccc2)C(=O)N[C@@H](Cc2ccc(O)cc2)C(=O)N[C@@H](CCCCNC(C)C)C(=O)N[C@H](CCCNC(=N)N)C(=O)N[C@@H](Cc2ccc3ccccc3c2)C(=O)NCC(=O)N1)C(N)=O; system = metastatic renal cell carcinoma patients; setting = subcutaneous, 20 mg/day, second cycle, with: sunitinib; how to read = baseline: baseline; measurement = maximum CD34+ cell count; value = 24.5 fold
Substance = CC(=O)c1sc(NN=C2c3ccccc3-c3nc4cc(F)ccc4nc32)nc1C; system = mouse, STZ-induced diabetes; setting = oral, 25 mg/kg, day 3; measurement = blood glucose; value = 313 ± 4.9 mg/dL
Substance = CCOc1ccc(C[C@@H](N)C(=O)N[C@@H](Cc2ccccc2)C(=O)NC2CCN(C(=N)N)CC2)cc1.O=C(O)C(F)(F)F.O=C(O)C(F)(F)F; system = rat; setting = sc osmotic pump, 0.58 mg/kg/day, 48 h, with: VEGF 10 ng/eye intravitreal; how to read = baseline: baseline; measurement = retinal thickness increase; value = 21.4 ± 4.6 µm
Substance = CSc1ccc(C(=O)/C=C/c2cc(C)c(OC(C)(C)C(=O)O)c(C)c2)cc1; assay = hepatic PPAR target gene induction; system = Sprague Dawley rats, diet-induced dyslipidemia, liver; setting = with: ACC inhibitor; measurement = dose; value = ≥ 3 mg/kg
Substance = O=C(NC[C@H]1CN(c2ccc(N3CCOCC3=O)cc2)C(=O)O1)c1ccc(Cl)s1; assay = prothrombin time, population PK/PD Emax model; system = human, plasma; measurement = EC50; value = 0.418 µg/mL
Substance = VQWRAIRVRVIR; assay = carboxyfluorescein release; system = peptide, EYPG vesicles; setting = 10 µg/mL, 250 s, pH 7.4, 25 °C; how to read = baseline: Triton X-100; measurement = leakage; value = 8%
Substance = CRWYDENAC (disulfide 1-9 (inferred)) (Cy7-labelled, cyclic, disulfide); assay = photoacoustic imaging; system = mouse, subcutaneous HCCLM3 tumour; setting = iv, 20 nM; measurement = time to peak PA signal; value = 24 h
Substance = insulin lispro; assay = euglycemic clamp; system = obese type 2 diabetic patients; setting = subcutaneous, 10 units, 8 h; measurement = maximum glucose infusion rate; value = 0.6 mg/kg/min
Substance = CC(C)[C@H](NC(=O)[C@@H]1CSSC[C@H](NC(=O)[C@H](CC(=O)O)NC(=O)[C@@H]2CCCN2C(=O)[C@@H](NC(=O)[C@@H](N)CCC(=O)O)[C@@H](C)O)C(=O)N[C@@H](Cc2ccccc2)C(=O)N[C@@H](Cc2c[nH]c3ccccc23)C(=O)N[C@@H](CCCCN)C(=O)N[C@@H](Cc2ccc(O)cc2)C(=O)N1)C(=O)O; system = male Wistar rats, anaesthetised; setting = intracavernous, 1 nmol per rat; measurement = ICP increase AUC; value = 268 ± 13.5 mmHg·s
Substance = Cc1noc(C)c1-c1cnc2c(-c3ccc(C(=O)O)cc3)cn([C@@H](C)c3ccccn3)c2c1; system = mouse, Eµ-TCL1 adoptive transfer; setting = oral, 20 mg/kg daily, until 150 days; measurement = median overall survival; value = 93 days
Substance = CC12CCC(CC1)C(C)(C)O2; assay = two-choice feeding trial; system = Brachylagus idahoensis; setting = 1% dry weight in diet, 72 h, with: monoterpene mixture 1% dry weight; measurement = proportion of food consumed; value = 70 ± 0.08%
Substance = CC[C@H](C)[C@H](NC(=O)[C@H](C)NC(=O)[C@H](CCCNC(=N)N)NC(=O)[C@H](Cc1c[nH]c2ccccc12)NC(=O)[C@H](CCC(N)=O)NC(=O)[C@@H](N)C(C)C)C(=O)N[C@@H](CCCNC(=N)N)C(=O)N[C@H](C(=O)N[C@@H](CCCNC(=N)N)C(=O)N[C@H](C(=O)N[C@H](C(=O)N[C@@H](CCCNC(=N)N)C(N)=O)[C@@H](C)CC)C(C)C)C(C)C; assay = carboxyfluorescein release; system = EYPC vesicles; setting = 10 µg/mL, 250 s, pH 7.4, 25 °C; how to read = baseline: Triton X-100; measurement = leakage; value = 1%
Substance = CCOc1ccc(Cc2cc([C@@H]3O[C@H](SC)[C@@H](O)[C@H](O)[C@H]3O)ccc2Cl)cc1; system = healthy Chinese subjects; setting = oral, 200 mg once daily, 24 h, day 1; measurement = urinary glucose excretion; value = 33.9 g
Substance = CC(C)(O)c1ccccc1-c1ccc2[nH]c(/C=C/c3ccc(C(F)(F)F)cc3)nc2c1; system = human; how to read = baseline: placebo; measurement = dose increasing heat pain threshold; value = ≥ 10 mg
Substance = CC(C)C[C@H](NC(=O)[C@H](CO)NC(=O)[C@H](CCCNC(=N)N)NC(=O)[C@H](CC(=O)O)NC(=O)[C@H](CCC(=O)O)NC(=O)[C@H](C)NC(=O)[C@@H]1CCCN1C(=O)[C@H](C)NC(=O)[C@H](CCC(=O)O)NC(=O)[C@@H]1CCCN1C(=O)[C@@H]1CCCN1)C(N)=O; assay = HPLC-EC; system = F344 rat, normal, substantia nigra; setting = intranasal, 1000 µg, 5 days/week, 3 weeks; measurement = dopamine level; value = 416 ± 71 ng/g
Substance = O=C(/C=C(/C=C/c1cccnc1)NCCCO)/C=C/c1cccnc1; assay = DPPH scavenging; measurement = EC50; value = > 200 µM

Repeated from above:
Substance = CC(C)NCCCC[C@H](NC(=O)[C@H]1CCC(=O)N[C@@H](Cc2ccccc2)C(=O)N[C@@H](Cc2ccc(O)cc2)C(=O)N[C@@H](CCCCNC(C)C)C(=O)N[C@H](CCCNC(=N)N)C(=O)N[C@@H](Cc2ccc3ccccc3c2)C(=O)NCC(=O)N1)C(N)=O; system = metastatic renal cell carcinoma patients; setting = subcutaneous, 20 mg/day, second cycle, with: sunitinib; how to read = baseline: baseline; measurement = maximum CD34+ cell count; value = 24.5 fold
Substance = VQWRAIRVRVIR; assay = carboxyfluorescein release; system = peptide, EYPG vesicles; setting = 10 µg/mL, 250 s, pH 7.4, 25 °C; how to read = baseline: Triton X-100; measurement = leakage; value = 8%
Substance = insulin aspart; system = obese type 2 diabetes patients; setting = subcutaneous, 0.2 U/kg, before standard meal; measurement = maximum glucose excursion; value = 40 mg/dL
